Measurements collected from several papers.
A part holds a random share of what one study measured. Substitutions count along the parent as printed.

Set 1 — technique: aptamer microarray, sandwich; form: DNA with 2'F-ANA; medium: in vitro; tested at: 200 nM; together with: Cy3 exosite-II aptamer, 400 nM; reading: higher = stronger binding; sequence: GGTTGGTGTGGTTGG
Target: Prothrombin, mature alpha-thrombin (F2, Homo sapiens, UniProt P00734)
Setting: whole 15-mer aptamer, many near background
| Modification | mean fluorescence intensity [a.u.] |
| --- | --- |
| 2'F-ANA at 2 3 4 7 8 10 11 13 | 247 |
| 2'F-ANA at 1 4 7 8 9 12 13 14 | 185 |
| 2'F-ANA at 1 3 5 6 8 12 13 15 | 97.7 |
| 2'F-ANA at 2 4 5 8 11 14 | 52 |
| 2'F-ANA at 2 3 4 6 8 9 11 15 | 409 |
| 2'F-ANA at 1 6 7 8 11 13 | 157 |
| 2'F-ANA at 3 4 7 8 10 11 12 13 15 | 286 |
| 2'F-ANA at 1 2 3 4 5 6 8 10 12 13 | 45.3 |
| 2'F-ANA at 1 2 3 6 7 9 10 11 13 | 59.6 |
| 2'F-ANA at 2 6 11 12 15 | 468 |
| 2'F-ANA at 4 5 6 7 8 10 11 12 14 15 | 50.1 |
| 2'F-ANA at 3 6 7 8 9 10 11 12 13 | 503 |
| 2'F-ANA at 1 3 5 6 8 12 14 | 86 |
| 2'F-ANA at 4 5 6 7 8 11 15 | 57.4 |
| 2'F-ANA at 6 7 9 10 11 12 14 | 141 |
| 2'F-ANA at 1 4 5 6 9 10 11 13 14 | 76.9 |
| 2'F-ANA at 5 6 7 15 | 73.9 |
| 2'F-ANA at 3 4 6 7 8 11 | 618 |
| 2'F-ANA at 3 5 8 11 12 13 15 | 190 |
| 2'F-ANA at 3 4 10 11 12 13 14 | 201 |
| 2'F-ANA at 2 3 5 9 12 | 243 |
| 2'F-ANA at 2 5 6 8 9 12 13 15 | 185 |
| 2'F-ANA at 1 3 4 6 7 8 9 11 12 13 15 | 217 |

Set 2 — technique: RNA Bind-n-Seq; form: RNA; medium: in vitro; tested at: 200 nM; setting: whole 134-nt RNA, ends assumed; together with: 150 mM KCl; baseline: input library; reading: higher = stronger binding
Target: Fragile X messenger ribonucleoprotein 1, C-terminal low-complexity region (Fmr1, Mus musculus, UniProt P35922)
Shared flanks, not repeated: GGGAGUUCUACAGUCCGACGAUC … UGGAAUUCUCGGGUGUCAAGG
| Sequence | log2 enrichment |
| --- | --- |
| GCAGGAAGUAAAAACAAAUGGAAAUGCUUCGGAUAGUGAAAGGGGUGGGGGUUGCUAAGGAAAGGGUGGGAUGGGAGUGGGUAAAGAGUU | 0.286 |
| CCUGUGCUACACAUCGUAUGUACCGAAUCGGUUUUUUGGGUUUUUUGGGGUUUUUUGGGGAAAGUAUUAUGUUACGCCGUUCGGAUCUGC | -0.603 |
| UGGGAGGUGGAUUGUGUUUAUUUUUUUAGCUCAUUUCCAGGGGUGGGAAUUUUUUUUUAAUAUGUGUCAUGAAUAAAGUUGUUUUUGAAA | 0.0101 |
| CACAGACAACACGCACCCACACAGACACAGAGGGAGGGGGUUGGGAUGGGGACAGGGUGCACAGCAGGGCGGGGUAGGACCCCAGCCCCU | 1.2 |
| UGUGCUACACAUCGUAUGUACCGAAUCGGGGCCCCCCCGGGGCCCCCCCGGGCCCCCCCGGGAAAGUAUUAUGUUACGCCGUUCGGAUCU | -1.41 |
| CCUGUGCUACACAUCGUAUGUACCGAAUCAAAUUUUUUUAAAUUUUUUUAAACCCCCAAAAAAGUAUUAUGUUACGCCGUUCGGAUCUGC | 0.11 |
| AGUCCUGUGCUACACAUCGUAUGUACCGAAUCGGGGUUUUGGGUUUUGGGUUUUGGGAAAGUAUUAUGUUACGCCGUUCGGAUCUGCACU | 0.699 |
| GUGCUACACAUCGUAUGUACCGAAUCGGGGAAAAAAAGGGGUUUUUUUGGGGUUUUUUUGGGGAAAGUAUUAUGUUACGCCGUUCGGAUC | 0.425 |
| GUCCUGUGCUACACAUCGUAUGUACCGAAUCGGGUUUUUGGGAAAAAAAGGGAAAGGGAAAGUAUUAUGUUACGCCGUUCGGAUCUGCAC | -0.447 |

Set 3 — target: CCNA2, cyclin fold, Cln2 fusion (human); technique: yeast growth competition, sequencing; medium: yeast; setting: strong parent motif; baseline: not given; reading: higher = stronger binding
Parent: CDKN1B docking peptide (human); PSACRNLFGPVDH; partner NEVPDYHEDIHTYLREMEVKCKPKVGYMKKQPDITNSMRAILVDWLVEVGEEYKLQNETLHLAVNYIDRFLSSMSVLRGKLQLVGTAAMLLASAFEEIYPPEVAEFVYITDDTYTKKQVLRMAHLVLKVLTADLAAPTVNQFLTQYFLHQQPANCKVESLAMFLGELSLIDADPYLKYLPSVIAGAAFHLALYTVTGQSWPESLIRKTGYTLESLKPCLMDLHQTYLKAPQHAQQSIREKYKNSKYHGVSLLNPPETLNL
| Change | normalised enrichment score |
| --- | --- |
| S2H | 3.49 |
| P10S | 3.83 |
| D12M | 3.23 |
| R5A | -0.353 |
| P10N | 3.83 |
| D12L | 3.33 |
| C4H | 1.49 |
| S2K | 5.23 |
| R5W | -0.0542 |
| N6G | 0.745 |
| A3W | 2.29 |
| V11M | 3.68 |
| R5M | 0.0819 |
| R5G | -0.203 |
| A3E | 0.408 |
| L7I | 1.76 |
| D12K | 3.81 |
| V11F | 3.7 |
| R5S | 0.112 |
| A3I | 3.43 |
| L7G | 0.486 |
| H13Q | 4.4 |
| S2T | 4.1 |
| V11H | 4.06 |

Set 4 — technique: universal PBM; form: double-stranded DNA, one strand shown; medium: in vitro; tested at: 600 nM; reading: higher = stronger binding
Target: Sal-like protein 4, full length isoform A (SALL4, Homo sapiens, UniProt Q9UJQ4, residues 1-1053)
UniProt Q9UJQ4, sequence (whole entry, looked up): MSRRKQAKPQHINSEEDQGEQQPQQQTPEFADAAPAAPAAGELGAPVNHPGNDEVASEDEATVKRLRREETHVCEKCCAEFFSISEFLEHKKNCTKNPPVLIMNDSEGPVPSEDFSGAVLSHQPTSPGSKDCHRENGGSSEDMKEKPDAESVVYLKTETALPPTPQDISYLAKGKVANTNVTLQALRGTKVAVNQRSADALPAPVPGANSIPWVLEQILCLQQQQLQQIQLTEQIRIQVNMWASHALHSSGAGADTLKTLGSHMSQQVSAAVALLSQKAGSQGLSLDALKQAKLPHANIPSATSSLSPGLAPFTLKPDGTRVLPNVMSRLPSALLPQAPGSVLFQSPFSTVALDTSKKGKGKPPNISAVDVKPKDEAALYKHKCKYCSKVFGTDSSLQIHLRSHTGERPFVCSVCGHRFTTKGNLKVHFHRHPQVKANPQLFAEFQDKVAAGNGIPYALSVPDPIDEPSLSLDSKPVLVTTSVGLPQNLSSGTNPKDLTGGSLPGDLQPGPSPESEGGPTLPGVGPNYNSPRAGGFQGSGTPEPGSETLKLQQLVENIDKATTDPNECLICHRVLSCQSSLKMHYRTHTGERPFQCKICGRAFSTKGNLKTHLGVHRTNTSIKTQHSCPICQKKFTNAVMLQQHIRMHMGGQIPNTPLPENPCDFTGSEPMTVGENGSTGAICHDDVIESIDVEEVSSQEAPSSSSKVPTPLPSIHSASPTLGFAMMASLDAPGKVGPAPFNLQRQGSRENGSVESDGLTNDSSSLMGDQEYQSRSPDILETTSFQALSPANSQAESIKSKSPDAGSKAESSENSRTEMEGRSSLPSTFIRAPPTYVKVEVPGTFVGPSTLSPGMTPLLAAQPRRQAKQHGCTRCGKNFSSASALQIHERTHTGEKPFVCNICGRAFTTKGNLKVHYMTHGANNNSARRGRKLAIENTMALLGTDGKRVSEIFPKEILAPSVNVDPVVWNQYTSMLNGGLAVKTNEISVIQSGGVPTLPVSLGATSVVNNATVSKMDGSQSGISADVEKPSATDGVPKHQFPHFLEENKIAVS
Setting: 8-mer, flanks averaged, mean of replicates
| Sequence | E-score |
| --- | --- |
| TCAGTCCA | -0.197 |
| AATCATGT | 0.266 |
| AGAGGCCC | -0.363 |
| CAGTGTCG | -0.258 |
| AGCGCCCC | -0.396 |
| CATGTTAA | 0.253 |
| AAGCTTAC | -0.0166 |
| ACGCAGAG | -0.105 |
| AATAAGGA | 0.184 |
| CATGTCCA | 0.0657 |
| TCCCGAGA | -0.236 |
| ATCGACGG | -0.141 |
| CCGAATGA | 0.119 |
| AATGTAGG | 0.0166 |
| ACTTGCCT | -0.119 |
| ATACAGAC | 0.14 |
| AGGGCGGG | -0.135 |
| CGCCCCTA | -0.202 |
| GTGTGGCA | -0.193 |

Set 5 — technique: protein binding microarray; form: double-stranded DNA, one strand shown; medium: in vitro; tested at: not given; baseline: not given; reading: higher = stronger binding
Target: Histone acetyltransferase KAT6A, winged helix 1, GST fusion (KAT6A, Homo sapiens, UniProt Q92794, residues 1-85)
Setting: 8-mer, flanks averaged, mean of 2 arrays, mostly near background
Target sequence (chain): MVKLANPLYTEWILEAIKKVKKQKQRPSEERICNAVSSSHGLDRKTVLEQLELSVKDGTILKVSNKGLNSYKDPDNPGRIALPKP
| Sequence | E-score |
| --- | --- |
| AAGCCGCA | 0.286 |
| GAGGGAGC | -0.0366 |
| ACCTTTAC | -0.0529 |
| CCATTCGA | -0.143 |
| CCGGGTGA | 0.262 |
| ATCATTTA | -0.0606 |
| AGAAGCTA | -0.0698 |
| AACTGCCG | 0.227 |
| AGTCTGTA | -0.103 |
| ACCGGGGG | 0.267 |
| GATGCGAC | 0.281 |
| AAATGAAA | -0.0985 |
| ACATTCGA | -0.0872 |
| AACTCCTA | -0.282 |
| ACCTCTGC | -0.0701 |
| CGAGACAG | -0.165 |
| CAAGTAAC | -0.0468 |
| TATAACCA | -0.185 |

Other studies, line by line
| Molecule | target | assay | system | setting | scale | endpoint | result |
| --- | --- | --- | --- | --- | --- | --- | --- |
| PhoQ, residues 284 288 289 292 302 303 SLANKL | PhoP, residues 12 14 15 18 19 NHFRA (Escherichia coli, UniProt P23836) | Sort-seq, item: YFP reporter | E. coli | PhoQ-PhoP variant library, together with: 10 µM Mg2+ | baseline: high Mg2+ state, higher = stronger signaling | fold induction | 3.04 |

A few entries again (set 5):
| Sequence | E-score |
| --- | --- |
| TATAACCA | -0.185 |
| AAATGAAA | -0.0985 |
| ACCTTTAC | -0.0529 |
| CCATTCGA | -0.143 |
| CGAGACAG | -0.165 |
| AAGCCGCA | 0.286 |
| GAGGGAGC | -0.0366 |
| AACTCCTA | -0.282 |
| ACCGGGGG | 0.267 |
| CAAGTAAC | -0.0468 |
| CCGGGTGA | 0.262 |
| ACATTCGA | -0.0872 |
| ATCATTTA | -0.0606 |
| AACTGCCG | 0.227 |
| GATGCGAC | 0.281 |
